Experimental data pooled from the literature.
Each numbered part is a random draw from the data of one study; scales do not carry over between parts.

Series 1
Target: RNA binding protein fox-1 homolog 2, RRM domain, GST-SBP tag (RBFOX2, Homo sapiens, UniProt O43251-10, residues 100-194)
Method: RNA Bind-n-Seq
Molecule type: RNA
Matrix: in vitro
Concentration: 365 nM
Notes: natural RNA segment, single round, ends assumed
Reference: no-protein control
Direction: higher = stronger binding
Shared flanks, not repeated: GGGAGUUCUACAGUCCGACGAUC … UGGAAUUCUCGGGUGCCAA
Residues (chain): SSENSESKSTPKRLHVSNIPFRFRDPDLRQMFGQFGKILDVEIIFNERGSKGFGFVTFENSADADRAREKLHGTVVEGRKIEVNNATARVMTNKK
For `CCAAGAACUAUAUUUCUUUCAUGAACUCAGCCCUGGAAGUUGCUUUUUUCUGCCAAAAGGAGCCUACAUUUAUAAUGCACUUAUUGAAUUCAUUAGGGGCGAAUAUAGGA`, “RBNS enrichment (R)” read 0.618.
`CUGGCAUCUCAGACAUGGUUCCUGCCUCACUUGUGGGAGCUGGACCAGCCUGGGUUUCAUCUCCCACAGUAAAGCUAAGUAAGCCCCACAGACCUUACUGCUACUGCUGC`: “RBNS enrichment (R)” 0.285.
`GCACACAUCAUCUGUAAGCUGUUUGGUUUUAAAAUACUGUAGAUAAUUAACCAAGGUAGAAUGACCUUGUAAUGUAACUGCUCUUGGGCAAUAUUCUCUGUACAUAUUAG` — result for “RBNS enrichment (R)”: 1.25.
For `AGUAUUUUGUGUCACUGAGAAGCUUUACAAUGGAUGCUUUUGAAACAAGUAUCAGCAAAAGGAUUUGUUUUCACUCUGGGAGGAGAGGGUGGAGAAAGCACUUGCUUUCA`, “RBNS enrichment (R)” read 0.839.
`GGCUGACAAAUUAGUCAUUGCUUAAACACAGUUCAUGCAGAUUAAACACAAAUCAAGUUCCAAAUUUCAUUGGACUCCACUUGAAGACCAUGAGAAAAUAGCUUGGUCUG` — result for “RBNS enrichment (R)”: 0.291.
`CUCUGUAGGACCAAGCACUCGGGGGAGAGGCCUAAGCCAUCCUCUGUUCCAGACUGGACAUCCACUGUCUUUCCUGCUUUCGCGUCAGAUUUACAGCUUAUGCUAGGCCC` — result for “RBNS enrichment (R)”: 0.208.
For `AAACCAGAAAAAAAAAAUCAGAAAAGUGUUCUCAGGUUCACCUUACGUCCUGCCUACAACUCCCGAGUGGCUUUUGGUAGUAACUACCCUGUGUACCCAUUAACAAAGCC`, “RBNS enrichment (R)” read 0.529.
Under “RBNS enrichment (R)”, `GACAGCAUCAGGUGGGAAAGUGGAGUCCACCCUCAUGUUUCUGUAGGAUUCUCACCGUGGGGCUGGAAGAAAAGAGCAUCGACUUGAUUUCUCCAACCACUCAUCCCUCU` is recorded as 0.459.
For `GAACUUGGAUUCCCCUGGGUAGAUGGAAACUGCAAAAACCCAAAGCCUCCAAAACUAACCAGGUCCACCUAACACCCCCUCCCUCCCCUAAGAAGAUGGAUGUCCUCAAA`, “RBNS enrichment (R)” read 0.456.

Series 2
Target: Prothrombin, mature alpha-thrombin (F2, Homo sapiens, UniProt P00734)
Method: aptamer microarray, sandwich
Molecule type: DNA with 2'F-ANA
Matrix: in vitro
Concentration: 200 nM
Notes: whole 15-mer aptamer, many near background
Added: Cy3 exosite-II aptamer, 400 nM
Direction: higher = stronger binding
Strand: GGTTGGTGTGGTTGG
Under “mean fluorescence intensity”, `2'F-ANA at 2 4 5 6 8 9 10 13 14 15` is recorded as 50.7 a.u.
`2'F-ANA at 1 2 3 4 6 8 15`: “mean fluorescence intensity” 179 a.u.
For `2'F-ANA at 3 4 6 10 14 15`, “mean fluorescence intensity” read 176 a.u.
For `2'F-ANA at 3 4 5 8 10 11 13 14 15`, “mean fluorescence intensity” read 50.6 a.u.
`2'F-ANA at 1 2 3 6 9 11`: “mean fluorescence intensity” 222 a.u.
For `2'F-ANA at 2 4 5 7 8 10 12 13`, “mean fluorescence intensity” read 78.5 a.u.
Under “mean fluorescence intensity”, `2'F-ANA at 4 5 8 10 11 12 14` is recorded as 49.3 a.u.
Under “mean fluorescence intensity”, `2'F-ANA at 1 2 3 6 7 8 9 13 14` is recorded as 70.6 a.u.

Series 3
Target: RING finger protein unkempt homolog, zinc fingers 1-6, GST-SBP tag (UNK, Homo sapiens, UniProt Q9C0B0, residues 30-357)
Chain of UniProt Q9C0B0 (30-357, looked up): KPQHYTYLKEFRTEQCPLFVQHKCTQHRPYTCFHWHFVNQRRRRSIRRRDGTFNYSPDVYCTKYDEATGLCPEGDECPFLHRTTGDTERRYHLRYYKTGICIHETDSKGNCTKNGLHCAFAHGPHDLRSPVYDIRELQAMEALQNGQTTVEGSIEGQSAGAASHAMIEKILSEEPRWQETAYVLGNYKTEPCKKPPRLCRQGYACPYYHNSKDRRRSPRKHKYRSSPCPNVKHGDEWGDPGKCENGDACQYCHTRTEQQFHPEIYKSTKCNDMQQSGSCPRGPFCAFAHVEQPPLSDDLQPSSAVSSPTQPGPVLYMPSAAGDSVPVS
Method: RNA Bind-n-Seq
Molecule type: RNA
Matrix: in vitro
Concentration: not given
Notes: RNA with constant flanks, human and mouse sites, ends assumed
Reference: input RNA pool
Direction: higher = stronger binding
Shared flanks, not repeated: GGGAGUUCUACAGUCCGACGAUC … CAACAGAGGAUUGAGCAUCA
`UUAUACCAAGUUGAAUAUGCCAUGGAAGCUAUUGGACAUGCAGGCACCUGUUUGGGAAUUUUAGCAAAUGAUGGUGUUUUGCUUGCAGCAGAGAGACGCAACAUCCACAAGCUUCUUGAU` has a bound/input enrichment of 0.21 ratio.
The bound/input enrichment of `GUGACUAACAUCCUUAUGCUGAAAGGAAAAAACCAGGCAUUUUUGGAACUGGCAACAGAGGAAGCAGCUAUUACUAUGGUUAAUUACUAUUCUGCUGUGACACCUCAUCUUCGUAACCAA` is reported as 0.188 ratio.
For `AAGUAGCAUAUGACUGGAAACUAUAUUCAGUGCACUUUCUCCAAAAGACUACCCAGAAAAAUAGACUUAUUUUCAAAUACCAGUUAUCAAGAUAUAUUAAAUAGCUGUAUUGUUUAGAAU`, the bound/input enrichment was 13.7 ratio.
`AGAAAGCCAAGGCCUGUCUCGCUCUUCUCUACACCCGUGGUGGAAGAGGUGGAAGUGCCCUCCAGCCUGGACGAGAGCCCCAUGGCUUUCUAUGAGCCCACCUUGGACUGUACCCUCCGG` has a bound/input enrichment of 0.208 ratio.
For `CCUUCUAAUUUUGGAGAUUUUUCUCAGAAUGUUUCUACACCUACUGAACAGCAGCAGCCAUUAGCUCAAAAUCCUUCAGGGAAAACAGAGUAUAUGGCUUUUCCAAAACCCUUUGAAAGC`, the bound/input enrichment was 0.103 ratio.
With `UCCACCAAGAGCCUCUUCCUUGGCCAGAAGCUGAACCUUAUUCACAGUGAAAUCAGUAAUUUAGCCGGCUUUGAGGUGGAGGCCAUAAUCAAUCCUACCAAUGCUGACAUUGACCUUAAA` the bound/input enrichment was 0.128 ratio.
With `CCCUCCCACCUCUUCCUGUGCAACAAAAUCAGAUACCUGGACUUGUCCUAUAACGACAUCCGCUUCAUCCCGCCCGAAAUCGGAGUUCUGCAAAGUUUACAGUAUUUUUCCAUCACUUGU` the bound/input enrichment was 0.312 ratio.

Mixed results
The fold induction of `PhoQ, residues 284 288 289 292 302 303 TASMAF` is reported as 4.43 (PhoP, residues 12 14 15 18 19 HHYTI (Escherichia coli, UniProt P23836); Sort-seq, item: YFP reporter; E. coli; PhoQ-PhoP variant library, added: 10 µM Mg2+; reference: high Mg2+ state, higher = stronger signaling).

Excerpt of the above (series 1):
For `CCAAGAACUAUAUUUCUUUCAUGAACUCAGCCCUGGAAGUUGCUUUUUUCUGCCAAAAGGAGCCUACAUUUAUAAUGCACUUAUUGAAUUCAUUAGGGGCGAAUAUAGGA`, “RBNS enrichment (R)” read 0.618.
`CUGGCAUCUCAGACAUGGUUCCUGCCUCACUUGUGGGAGCUGGACCAGCCUGGGUUUCAUCUCCCACAGUAAAGCUAAGUAAGCCCCACAGACCUUACUGCUACUGCUGC`: “RBNS enrichment (R)” 0.285.
`GCACACAUCAUCUGUAAGCUGUUUGGUUUUAAAAUACUGUAGAUAAUUAACCAAGGUAGAAUGACCUUGUAAUGUAACUGCUCUUGGGCAAUAUUCUCUGUACAUAUUAG` — result for “RBNS enrichment (R)”: 1.25.
For `AGUAUUUUGUGUCACUGAGAAGCUUUACAAUGGAUGCUUUUGAAACAAGUAUCAGCAAAAGGAUUUGUUUUCACUCUGGGAGGAGAGGGUGGAGAAAGCACUUGCUUUCA`, “RBNS enrichment (R)” read 0.839.
